Measurements collected from several papers.
A part holds a random share of what one study measured. Substitutions count along the parent as printed.

Series 1 — target: CCNE1, cyclin fold, Cln2 fusion (human); technique: yeast growth competition, sequencing; matrix: yeast; setting: weak parent motif; relative to: not given; reading: higher = stronger binding; quantity: normalised enrichment score
Parent: PKN2 docking peptide (human); VSAVQKLDFSDTM
F9V: -0.656
M13N: 0.757
D11T: 0.711
L7T: -0.468
F9R: 0.387
D11G: 0.638
D11R: 0.628
D11A: 0.736
D8Q: 0.66
D8L: 1.7
F9Y: 0.445
A3W: 1.13
S10C: 0.428
M13I: 0.712
L7G: -0.721
V4Y: 0.0259
S10A: 0.207
S2C: 0.372
A3L: 0.203
V1F: 0.737
L7V: -0.343

Series 2 — technique: RNA Bind-n-Seq; form: RNA; matrix: in vitro; tested at: 100 nM; relative to: input RNA pool; reading: higher = stronger binding; quantity: bound/input enrichment
Target: RING finger protein unkempt homolog, zinc fingers 1-6, SBP tag (UNK, Homo sapiens, UniProt Q9C0B0, residues 30-357)
UniProt Q9C0B0, sequence (30-357, looked up): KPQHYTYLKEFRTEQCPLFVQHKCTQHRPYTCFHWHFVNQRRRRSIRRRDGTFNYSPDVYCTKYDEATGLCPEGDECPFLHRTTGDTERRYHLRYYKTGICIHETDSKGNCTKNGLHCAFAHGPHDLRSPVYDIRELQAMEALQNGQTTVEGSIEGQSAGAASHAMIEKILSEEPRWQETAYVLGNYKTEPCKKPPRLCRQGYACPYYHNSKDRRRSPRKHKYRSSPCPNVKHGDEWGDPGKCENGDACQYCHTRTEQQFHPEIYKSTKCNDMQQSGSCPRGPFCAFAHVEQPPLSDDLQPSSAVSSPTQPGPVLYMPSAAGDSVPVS
Setting: RNA with constant flanks, vertebrate orthologous sites, ends assumed
Constant ends, left off below: GGGAGUUCUACAGUCCGACGAUC … CAACAGAGGAUUGAGCAUCA
GUCUCUUCUCCCUUAUCCUGAUUUUAAAAGCCCUUCUUUCUUUCUUUUUUUUUUUUUUAGGCAUAUGUAGUAAUAAUAGCAGAAAGAUUUAAUUUGGGCAACUUUGAUUCUUCAAAGAGA: 3.62 ratio
GGGCGGCCGGUGGGGGAAUCCCCUGCCUUGGCCUUGCCUCCCCUUCCUGCCACGUGCCCCUAGUUAUUUUUUUUUUUUUAACACCAUGUGAUUAAGGUCGGCGCUGCCUCCCCCGACCCA: 3.6 ratio
CCAUUCUUACUGUCCCUGGCCAGGGCCGAGGACCUCAGCUGUUUCACUGAGGACCUGCAUCUAAAACAUAUUUUUAAAUUGUUACACAGGAAGAGAUGUGACUAAAGCACCAUCUCAAAG: 0.416 ratio
UACCUUUUGUAGGCCAAAACCCUCCUUCUACUGCUUCUGCCAACUGGAAGCACAGAAAACUAGAAUUUCAUUUAUUUUGUUUAAAAAAAAAAAAAAAAAAUUGAUUUCUUGUAACAUUCA: 0.499 ratio
AUCUCUCAUUUUCUAUGUCCAAAAAAGGUUUUGAAUUUUUAAACAAUUGCUAGUUUUGAUUAGCUUUGCCCUCAUGAAGUAUUAUAAUCCCCACAAACAGAUAUCUGUCUGAAUUACUUC: 0.775 ratio
AAGAGCUGCGUAGAGUAGGGUCCUGUUCUCUUUAGAGCGUUCUUUCUCUGUUCUGUCUUCCUCAGGGUGGGGUAGGGGUUGUGGUGCACCCCAGCCCUGAGGCGUGAGUGUUUGUGGUUC: 0.63 ratio
AAAUUCCCCCGUUGUCACUGAGAACCACCAAAUCUGACUUUUACAUUUGGUCUCAGAAUUUAGGUUCCUGCCCUGUUGGUUUUUUUUUUUUUUUUUCAAACAGUUUUCAAAAGUUCUUAA: 1.17 ratio
AUCAGUAGAAUUACAUAAUACUAAAGUUGCAGUUGAAAGGAUAUUCAAGUUAUGUGUUGGUAGUUACUAAAAGAAAUAGCUGUUAUUGCCUUGUAUUUAUAGCCCUUGUUUCAGGUUUCA: 0.763 ratio
GGGCAGCAGGCGGGGUCAUUCCAUGCCCUAGCCUUGCCUCCCCUUCCUGCCACCGGCUCCUAGUUAUUUUUUUUUUAACCACCAUGUGAUUAAGGUCGGCGCUGCCUCCUCCCGACCCGC: 1.54 ratio
UUUUUGUUAACACGUGACACUGUGUAUAGAGGAUCUUCUGAGGGAGGAGGAAGGAUGCUCUAGCAGUGGUGCCUGGGUUCCUGGCCUCCAGUGCCCCACCACCCUCACCACCCCACCUGG: 0.328 ratio
GUCAUCGGAUUGGAUGAAGACCGUCCCGAGUUACAACCAAACCAAUAGCUCCAUGGACUUCAGAAAUUACAUGAUGAGAGAUGAGAAUCUGGAACCGCUGCCCAAAAACUGGGAGAUGGC: 0.416 ratio

Series 3 — technique: DHFR PCA, deep sequencing; matrix: yeast; added: (+)-ABA 710 µM; relative to: wild-type fitted maximum; reading: higher = stronger binding; quantity: relative binding score
Target: ABI1, truncated, D143A, DHFR fusion (Arabidopsis thaliana)
Setting: methotrexate growth selection, single substitutions
Parent: PYL1, truncated, DHFR fusion (Arabidopsis thaliana); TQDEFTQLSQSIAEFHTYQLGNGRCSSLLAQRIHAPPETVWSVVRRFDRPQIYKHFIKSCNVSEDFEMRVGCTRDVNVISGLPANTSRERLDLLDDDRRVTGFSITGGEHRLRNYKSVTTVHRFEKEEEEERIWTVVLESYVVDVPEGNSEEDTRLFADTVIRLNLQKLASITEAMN
W41Q: -25.5%
L166A: 12.4%
Q10L: 94%
C72I: 93.9%
T39W: 97.6%
R163N: 93%
I133N: 116%
I133S: 111%
S104E: 76.8%
E64M: 97.8%
R24W: 83.4%
T17I: 87.3%
N22D: 100%
I52T: 106%
T120K: 8.81%
E139V: 98.6%
T6A: 109%
I33T: 66.2%
N77F: 99.4%
P146L: 65%
P36W: 85.8%
L94W: 104%
V40R: -8.94%
A35V: 89.9%
V142Y: 86.9%

Series 4 — target: CREB3L4, bZIP domain (human); technique: DHFR protein complementation; matrix: yeast; relative to: wild-type JUN-FOS pair; reading: higher = stronger binding; quantity: binding fitness
Setting: single substitutions, most at no-binding floor
Parent: JUN, bZIP domain (human); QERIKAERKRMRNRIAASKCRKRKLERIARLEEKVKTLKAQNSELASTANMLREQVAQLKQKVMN; partner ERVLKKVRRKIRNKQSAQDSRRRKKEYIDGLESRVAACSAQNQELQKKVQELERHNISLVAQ
L38S: -1.47 natural log
A29C: -1.55 natural log
A49G: -1.52 natural log
E33T: -1.51 natural log
E32M: -1.56 natural log
T48V: -1.48 natural log
T48Q: -1.22 natural log
E32F: -1.52 natural log
K39F: -1.47 natural log
R30L: -1.43 natural log
V35P: -1.48 natural log
A46C: -1.44 natural log
L59S: -1.48 natural log
A29T: -1.52 natural log
T37K: -1.45 natural log
A57S: -1.23 natural log
I28R: -1.33 natural log
L31F: -1.48 natural log
E54G: -1.47 natural log
A29M: -1.49 natural log
A57W: -1.46 natural log

Series 5 — target: UBE2Q1 UBC core domain (UniProt Q7Z7E8); technique: yeast two-hybrid; matrix: yeast; setting: mostly zero background; relative to: not given; reading: higher = stronger interaction; quantity: lacZ reporter activity
B1: MEX3B RING domain (UniProt Q6ZN04); chain SGLRRKGSRDCSVCFESEVIAALVPCGHNLFCMECANRICEKSEPECPVCHTAVTQAIRIF
B2: RNF152 RING domain (UniProt Q8N8N0); chain ETLSQDSLLECQICFNYYSPRRRPKLLDCKHTCCSVCLQQMRTSQKDVRCPWCRGVTKLPPGFS
B3: RNF2 RING domain (UniProt Q99496); chain SPRSLHSELMCPICLDMLKNTMTTKECLHRFCADCIITALRSGNKECPTCRKKLVSKRSLR
B4: TRIM60 RING domain (UniProt Q495X7); chain ALVNLQEESSCPICLEYLKDPVTINCGHNFCRSCLSVSWKDLDDTFPCPVCRFCFPYKSFRR
B5: TRIM26 RING domain (UniProt Q12899); chain PLRSLEEEVTCSICLDYLRDPVTIDCGHVFCRSCTTDVRPISGSRPVCPLCKKPFKKENIRP
B6: DEF8 RING domain (UniProt Q6ZN54); chain AGRLGCSLTEIHTLFAKHIKLDCERCQAKGFVCELCREGDVLFPFDSHTSVCADCSAVFHRDCYYDNSTTCPKCARLSLRK
B7: MYCBP2 RING domain (UniProt O75592); chain TSLKQDADDMCMICFTEALSAAPAIQLDCSHIFHLQCCRRVLENRWLGPRITFGFISCPICKNKINHIVLKD
B8: RNF187 RING domain (UniProt Q5TA31); chain ALPAGPAEAACALCQRAPREPVRADCGHRFCRACVVRFWAEEDGPFPCPECADDCWQRAVEP
B9: TRIM31 RING domain (UniProt Q9BZY9); chain FVNKLQEEVICPICLDILQKPVTIDCGHNFCLKCITQIGETSCGFFKCPLCKTSVRKNAIRF
Target sequence (chain): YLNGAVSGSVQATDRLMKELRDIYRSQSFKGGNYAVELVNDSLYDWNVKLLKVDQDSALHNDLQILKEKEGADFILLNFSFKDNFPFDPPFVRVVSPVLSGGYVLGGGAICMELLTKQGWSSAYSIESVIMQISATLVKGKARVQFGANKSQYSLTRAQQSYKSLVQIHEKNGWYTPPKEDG
B1 (MEX3B RING domain): 0
B2 (RNF152 RING domain): 0
MNDVLENELQCIICSEYFIEAVTLNCAHSFCSYCINEWMKRKIECPICRKDIKSKTYSL (RNF8 RING domain (UniProt O76064)): 0
B3 (RNF2 RING domain): 0
B4 (TRIM60 RING domain): 0
B5 (TRIM26 RING domain): 0
QVQSRTKIEECVVCSDKKAAVLFQPCGHMCACENCANLMKKCVQCRAVVERRVPFI (MIB1 RING domain (UniProt Q86YT6)): 0
B6 (DEF8 RING domain): 0
B7 (MYCBP2 RING domain): 0
B8 (RNF187 RING domain): 0
FVKTVEDKYKCEKCHLVLCSPKQTECGHRFCESCMAALLSSSSPKCTACQESIVKDKVF (TRAF3 RING domain (UniProt Q13114)): 0
B9 (TRIM31 RING domain): 0
RYRQMEERITCPICIDSHIRLVFQCGHGACAPCGSALSACPICRQPIRDRIQIF (MIB2 RING domain (UniProt Q96AX9)): 0
LGTKLEAKYLCSACRNVLRRPFQAQCGHRYCSFCLASILSSGPQNCAACVHEGIYEEGIS (TRAF2 RING domain (UniProt Q12933)): 0

Repeated from above (series 2):
AUCUCUCAUUUUCUAUGUCCAAAAAAGGUUUUGAAUUUUUAAACAAUUGCUAGUUUUGAUUAGCUUUGCCCUCAUGAAGUAUUAUAAUCCCCACAAACAGAUAUCUGUCUGAAUUACUUC: 0.775 ratio
GUCUCUUCUCCCUUAUCCUGAUUUUAAAAGCCCUUCUUUCUUUCUUUUUUUUUUUUUUAGGCAUAUGUAGUAAUAAUAGCAGAAAGAUUUAAUUUGGGCAACUUUGAUUCUUCAAAGAGA: 3.62 ratio
AAGAGCUGCGUAGAGUAGGGUCCUGUUCUCUUUAGAGCGUUCUUUCUCUGUUCUGUCUUCCUCAGGGUGGGGUAGGGGUUGUGGUGCACCCCAGCCCUGAGGCGUGAGUGUUUGUGGUUC: 0.63 ratio
GGGCAGCAGGCGGGGUCAUUCCAUGCCCUAGCCUUGCCUCCCCUUCCUGCCACCGGCUCCUAGUUAUUUUUUUUUUAACCACCAUGUGAUUAAGGUCGGCGCUGCCUCCUCCCGACCCGC: 1.54 ratio
CCAUUCUUACUGUCCCUGGCCAGGGCCGAGGACCUCAGCUGUUUCACUGAGGACCUGCAUCUAAAACAUAUUUUUAAAUUGUUACACAGGAAGAGAUGUGACUAAAGCACCAUCUCAAAG: 0.416 ratio
UACCUUUUGUAGGCCAAAACCCUCCUUCUACUGCUUCUGCCAACUGGAAGCACAGAAAACUAGAAUUUCAUUUAUUUUGUUUAAAAAAAAAAAAAAAAAAUUGAUUUCUUGUAACAUUCA: 0.499 ratio
GGGCGGCCGGUGGGGGAAUCCCCUGCCUUGGCCUUGCCUCCCCUUCCUGCCACGUGCCCCUAGUUAUUUUUUUUUUUUUAACACCAUGUGAUUAAGGUCGGCGCUGCCUCCCCCGACCCA: 3.6 ratio
